Published values pooled from the literature.
Each numbered part is a random draw from the data of one study; scales do not carry over between parts.

Sample 1
Target: Interferon regulatory factor 5, full length, phosphomimetic (IRF5, Homo sapiens, UniProt Q13568-2, residues 1-514, S451D/S453D/S456D/S462D)
Technique: protein-binding microarray
Molecule type: double-stranded DNA, one strand shown
Matrix: in vitro
Concentration: 940 nM top
Notes: 60-bp whole probe
Added: salmon DNA 0.4 mg/ml
Reference: random background probes
Reading: higher = stronger binding
Endpoint: fitted relative affinity
GCCTAGCACTTAGGTTTCCCTTCCCTTTAGTGCTAGGTCTTGATTCGCTTGACGCTGCTG: 2.56 z-score
GCCTAGCACGACGGACTGCTTATCCCGACGTGCTAGGTCTTGATTCGCTTGACGCTGCTG: -0.23 z-score
GCCTAGCACTTAGGACTGGGTTTCGGCTAGTGCTAGGTCTTGATTCGCTTGACGCTGCTG: 3.12 z-score
GCCTAGCACTTAGGTTTCGGTAGCGGTTAGTGCTAGGTCTTGATTCGCTTGACGCTGCTG: 14.8 z-score

Sample 2
Target: Histone acetyltransferase KAT6A, winged helix 1, GST fusion (KAT6A, Homo sapiens, UniProt Q92794, residues 1-85)
Technique: protein binding microarray
Molecule type: double-stranded DNA, one strand shown
Matrix: in vitro
Concentration: not given
Notes: 8-mer, flanks averaged, mean of 2 arrays, mostly near background
Reference: not given
Reading: higher = stronger binding
Endpoint: E-score
Construct (chain): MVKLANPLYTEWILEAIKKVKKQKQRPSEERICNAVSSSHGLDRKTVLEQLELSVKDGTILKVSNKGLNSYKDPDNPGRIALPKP
GCGCCAAA: 0.23
GACTGCCA: -0.132
AGCACGCA: -0.00876
GCAGACAC: -0.0433
GGAGGGGA: -0.0765
AGTTGCAG: -0.242
CCCCGACC: 0.0948
GAGTCCAA: -0.0982
GCCCACAC: -0.042

Sample 3
Target: Prothrombin, mature alpha-thrombin (F2, Homo sapiens, UniProt P00734)
Technique: aptamer microarray, sandwich
Molecule type: DNA with 2'F-ANA
Matrix: in vitro
Concentration: 200 nM
Notes: whole 15-mer aptamer, many near background
Added: Cy3 exosite-II aptamer, 400 nM
Reading: higher = stronger binding
Endpoint: mean fluorescence intensity
Sequence: GGTTGGTGTGGTTGG
2'F-ANA at 1 7 10 11 15: 50.4 a.u.
2'F-ANA at 1 3 4 7 8 9 10 12 13 15: 165 a.u.
2'F-ANA at 1 3 4 6 9 11 13 14: 54.6 a.u.
2'F-ANA at 1 2 3 4 6 7 10 11: 67.8 a.u.
2'F-ANA at 1 3 4 5 6 8 10 12 13: 47.2 a.u.
2'F-ANA at 3 4 7 10 11 15: 261 a.u.
2'F-ANA at 1 2 3 5 6 7 10 12 14 15: 54.6 a.u.
2'F-ANA at 1 4 5 6 8 9 10 12 13: 47.6 a.u.
2'F-ANA at 1 7 8 12 13 14 15: 92.8 a.u.
2'F-ANA at 1 2 3 5 6 8 12 14: 64 a.u.

Single results of other studies
PhoQ, residues 284 288 289 292 302 303 HSYLQF — fold induction (PhoP, residues 12 14 15 18 19 LHTVL (Escherichia coli, UniProt P23836); Sort-seq, item: YFP reporter; E. coli; PhoQ-PhoP variant library, added: 10 µM Mg2+; reference: high Mg2+ state, higher = stronger signaling): 98.6

Excerpt of the above (sample 3):
2'F-ANA at 1 3 4 6 9 11 13 14: 54.6 a.u.
2'F-ANA at 1 2 3 4 6 7 10 11: 67.8 a.u.
2'F-ANA at 1 3 4 5 6 8 10 12 13: 47.2 a.u.
2'F-ANA at 3 4 7 10 11 15: 261 a.u.
